Assay results collected from several papers.
Lines come from different studies, so protocols differ. Numbers after ± are the reported error.

SMILES | test | system | conditions | how to read | endpoint | value
CN1CCN(c2ccc3[nH]c(-c4ccc5[nH]c(-c6ccc(OCCCCNC(=O)c7cccc8c7C(=O)OC87c8ccc(N(C)C)cc8[Si](C)(C)c8cc(N(C)C)ccc87)cc6)nc5c4)nc3c2)CC1 | – | PBS | – | – | fluorescence quantum yield | 0.01 ± 0.03
CCN(CC)c1ccc2c(c1)O[B-]1(c3ccccc3C)OC(=O)C(c3ccccc3)=N[N+]1=C2 (stereo not shown) | – | toluene | – | – | fluorescence emission maximum | 507 nm
CCCCN1C(=O)c2cccc3c(NCCCCCCCCCCN4CCOCC4)ccc(c23)C1=O | – | ethyl acetate | – | – | fluorescence quantum yield | 1
CN1CCN(c2ccc3[nH]c(-c4ccc5[nH]c(-c6ccc(OCCCCNC(=O)c7cccc8c7C(=O)OC87c8ccc(N(C)C)cc8C(C)(C)c8cc(N(C)C)ccc87)cc6)nc5c4)nc3c2)CC1 | – | PBS | 1 µM, 2 h, room temperature, together with: 20 µM hairpin DNA | – | fluorescence quantum yield | 0.39 ± 0.03
COc1ccc2c(c1)O[B-]1(c3ccccc3)OC(=O)C(c3ccccc3)=N[N+]1=C2C (stereo not shown) | – | toluene | – | – | fluorescence quantum yield | 0.04
CCCCN1C(=O)c2cccc3c(NCCCN4CCOCC4)ccc(c23)C1=O | – | toluene | – | – | fluorescence lifetime | 8.1 ns
O=c1cc(/C=C/c2ccc(N(c3ccccc3)c3ccccc3)cc2)oc(/C=C/c2ccc(N(c3ccccc3)c3ccccc3)cc2)c1 | – | acetonitrile | 10 µM, 298 K | baseline: 9,10-diphenylanthracene in toluene | fluorescence quantum yield | 0.018
CCC1=[N+]2N=C(c3ccccc3)C(=O)O[B-]2(c2ccccc2)Oc2cc(OC)ccc21 (stereo not shown) | – | toluene | – | – | fluorescence emission maximum | 500 nm
O=c1cc(/C=C/c2ccc(N3CCCC3)cc2)oc(/C=C/c2ccc(N3CCCC3)cc2)c1 | fluorescence | nanoparticles in aqueous acetonitrile | – | baseline: acetonitrile solution | fluorescence bathochromic shift | 1190 cm⁻¹
CC1(C)C(=CC=C2CCCC(C=CC3=[N+](CCC[N+](C)(C)C)c4ccc(S(=O)(=O)O)cc4C3(C)C)=C2SCCOCCOCCC(=O)O)N(CCC[N+](C)(C)C)c2ccc(S(=O)(=O)O)cc21 | – | DMSO | – | – | fluorescence quantum yield | 15.4%

Repeated from above:
SMILES | test | system | conditions | how to read | endpoint | value
O=c1cc(/C=C/c2ccc(N3CCCC3)cc2)oc(/C=C/c2ccc(N3CCCC3)cc2)c1 | fluorescence | nanoparticles in aqueous acetonitrile | – | baseline: acetonitrile solution | fluorescence bathochromic shift | 1190 cm⁻¹
